Experimental data gathered from unrelated publications.
Compare with care: the assays were run in different laboratories. ± marks the error that the study gave.
rep main protease: Replicase polyprotein 1ab, main protease (rep, Severe acute respiratory syndrome coronavirus 2, UniProt P0DTD1)

For `COc1ccc(C2=N[C@@](C)(C(=O)O)CS2)c(O)c1`, the uranium excretion was 265 ± 83 µg/kg (bile duct-cannulated rats, bile and urine; oral, 300 µmol/kg, 24 h, together with: uranium 1 mg/kg s.c.).
The transition enthalpy of `LPYGK` is reported as 0.3 kcal/mol (DSC; peptide, 6/4 SOPC/cholesterol bilayers; 10 mol%, pH 7.40, SOPC chain melting transition).
`GVYYPDKVFR`: “frequency of responding donors” 25% (AIM; peptide, CD8+ T cells from PBMC, human donors; baseline: positive over tested donors).
`O=c1ccc(=O)[nH][nH]1`: toxicity “toxic” (agonist; medaka larvae; dose not given).
Under “frequency of responding donors”, `VPLHGTIL` is recorded as 25 (AIM; peptide, CD8+ T cells from PBMC, human donors; HLA-B*07:02 restricted, unit not given; baseline: positive over tested donors).
`CC[C@H](C)[C@H](NC(=O)[C@H](Cc1ccc(O)cc1)NC(=O)[C@H](Cc1c[nH]c2ccccc12)NC(=O)[C@H](CC(C)C)NC(C)=O)C(=O)N[C@@H](CCCCN)C(N)=O` gave a transition enthalpy of 0.1 kcal/mol (DSC; SOPC/cholesterol 6/4 bilayers; 5 mol%, pH 7.40).
For `CS/C(S)=N/CCCC[S+](C)[O-]` (racemic), “mRNA fold change” read 1.13 (RT-PCR, item: Pon1; rat, liver; oral gavage, 200 mg/kg, 96 h, dosed for four days; baseline: vehicle).
`COc1ccc(C2=N[C@@H](C(=O)O)CS2)c(O)c1` has a uranium excretion of 260 ± 45 µg/kg (bile duct-cannulated rats, bile and urine; oral, 300 µmol/kg, 24 h, together with: uranium 1 mg/kg s.c.).
The Kd of `BKRF4 fragment P86A (Epstein-Barr virus)` is reported as 4.5 µM (H2A/H2B dimer (Homo sapiens); ITC; 25 °C, NaCl 0.5 M).
The inhibition of `bivalirudin` is reported as 2.27% (rep main protease; enzyme activity, Gaussia luciferase reporter; SARS-CoV-2; 20 µM).
`COCCOCCOCCOc1cccc(C2=N[C@@](C)(C(=O)O)CS2)c1O` has a uranium excretion of 316 ± 58 µg/kg (rat, bile duct-cannulated, bile and urine; subcutaneous, 150 µmol/kg single dose, 24 h, together with: uranium 1 mg/kg s.c.).
The Km of `FolB (Mycobacterium tuberculosis, UniProt P9WNC5)` is reported as 0.165 µM (Nc1nc2c(c(=O)[nH]1)N=C([C@H](O)[C@H](O)CO)CN2; steady-state kinetics; pH 7, 25 °C).
`CCC(C)(c1ccc(O)cc1)c1ccc(O)cc1`: activity call “active” (antagonist, qPCR in vivo, item: Shp and Bsep mRNA; Oryzias latipes; dose not given).
`p2o (Trametes ochracea, UniProt Q7ZA32)` has a Km of 120 µM (CN(C)c1ccc2nc3ccc(N(C)C)c([N+](=O)[O-])c3[s+]c2c1; steady-state kinetics; pH 6.5, 22 °C, apparent).
`NPIQLSSYSL` — result for “frequency of responding donors”: 50 (AIM; peptide, CD8+ T cells from PBMC, human donors; HLA-B*07:02 restricted, unit not given; baseline: positive over tested donors).
For `C/C=C1\NC(=O)C(C(C)O)NC(=O)C(CCCN)NC(=O)C(CCO)NC(=O)CNC(=O)C(CCN)NC(=O)C(NC(=O)CC(O)CCCCCCCCCCC)COC(=O)C(C(O)CCl)NC(=O)C(C(O)C(=O)O)NC1=O` (stereo not drawn), the maximum fusion was 44 ± 6% (calcein leakage; DOPC/DOPG/CHOL liposomes; concentration not given, together with: 20 wt% PEG-8000).
`O=C(O)CN(CCN(CC(=O)O)CC(=O)O)CCN(CC(=O)O)CC(=O)O` has a uranium excretion of 212 ± 114 µg/kg (bile duct-cannulated rats, bile and urine; oral, 300 µmol/kg, 24 h, together with: uranium 1 mg/kg s.c.).
`LPYAK` has a transition enthalpy of 0.4 kcal/mol (DSC; peptide, 6/4 SOPC/cholesterol bilayers; 15 mol%, pH 7.40, SOPC chain melting transition).
Under “frequency of responding donors”, `APSASAFFGM` is recorded as 33 (AIM; peptide, CD8+ T cells from PBMC, human donors; HLA-B*07:02 restricted, unit not given; baseline: positive over tested donors).
For `insulin human`, the fold change was 1.14 (item: CNR1 mRNA; uninfected mouse, brain; i.p., dose not given; baseline: PBS).
Under “frequency of responding donors”, `QVVNVVTTK` is recorded as 100 (AIM; peptide, CD8+ T cells from PBMC, human donors; HLA-A*03:01 restricted, unit not given; baseline: positive over tested donors).
With `COCCOCCOCCOc1ccc(C2=N[C@@](C)(C(=O)O)CS2)c(O)c1` the uranium excretion was 515 ± 107 µg/kg (rat, bile duct-cannulated, bile and urine; subcutaneous, 300 µmol/kg single dose, 24 h, together with: uranium 1 mg/kg s.c.).
`RPQGLPNNTA` — result for “frequency of responding donors”: 33 (AIM; peptide, CD8+ T cells from PBMC, human donors; HLA-B*07:02 restricted, unit not given; baseline: positive over tested donors).
For `Teneligliptin hydrobromide`, the inhibition was 2.11% (rep main protease; enzyme activity, Gaussia luciferase reporter; SARS-CoV-2; 20 µM).

For quick reference, copied from above:
Under “frequency of responding donors”, `APSASAFFGM` is recorded as 33 (AIM; peptide, CD8+ T cells from PBMC, human donors; HLA-B*07:02 restricted, unit not given; baseline: positive over tested donors).
Under “frequency of responding donors”, `QVVNVVTTK` is recorded as 100 (AIM; peptide, CD8+ T cells from PBMC, human donors; HLA-A*03:01 restricted, unit not given; baseline: positive over tested donors).
For `C/C=C1\NC(=O)C(C(C)O)NC(=O)C(CCCN)NC(=O)C(CCO)NC(=O)CNC(=O)C(CCN)NC(=O)C(NC(=O)CC(O)CCCCCCCCCCC)COC(=O)C(C(O)CCl)NC(=O)C(C(O)C(=O)O)NC1=O` (stereo not drawn), the maximum fusion was 44 ± 6% (calcein leakage; DOPC/DOPG/CHOL liposomes; concentration not given, together with: 20 wt% PEG-8000).
